Experimental data gathered from unrelated publications.
Each line is one published result; not all experiments were run side by side. Several values in a cell are separate wells, animals, samples, runs or records. ± gives the spread as reported.

`CSCC[C@H](NC(=O)[C@@H](NC(=O)[C@H](CC(C)C)NC(=O)[C@@H](NC(=O)[C@H](Cc1c[nH]cn1)NC(=O)CCCCCNC(=O)[C@H](CCCNC(=N)N)NC(=O)[C@H](CCCNC(=N)N)NC(=O)[C@H](CCCNC(=N)N)NC(=O)[C@H](CCC(N)=O)NC(=O)[C@H](CCCNC(=N)N)NC(=O)[C@H](CCCNC(=N)N)NC(=O)[C@H](CCCCN)NC(=O)[C@H](CCCCN)NC(=O)[C@H](CCCNC(=N)N)NC(=O)CNC(=O)[C@@H](N)Cc1ccc(O)cc1)C(C)C)C(C)C)C(=O)N[C@@H](CS)C(=O)N[C@@H](C)C(=O)N[C@H](C(N)=O)[C@@H](C)O` gave a serum chloride of 107 mmol/L and 108 mmol/L and 112 mmol/L (C57BL/6J mice; Alzet osmotic pump, 3 mg/kg, 8 weeks).
With `Cc1ccccc1-c1ccc(-c2nc(-c3ccc(CN(C)CCCC(=O)O)c([18F])c3)no2)cc1C(F)(F)F` the tracer uptake was 0.36 %ID/g (rat, spleen; 2 h).
`C=Cc1c(C)c2cc3nc(c(CC(=O)[O-])c4[n-]c(cc5nc(cc1[n-]2)C(C)=C5CC)c(C)c4C(=O)[O-])C(CCC(=O)[O-])C3C.[Cu+2].[Na+].[Na+].[Na+]` (centres unmarked) gave a serum albumin of 1 ± 0.19 g/dL (Wistar rat, male; oral, 1000 mg/kg daily, 28 days).
The gamma-glutamyltransferase activity of `O=C1NC2(CC2)COc2ncc(F)cc2[C@H]2COCCN2c2ccn3ncc1c3n2` is reported as 0.5 ± 0.3 U/L (Sprague-Dawley rat, female, serum; oral, 20 mg/kg/day, 4 weeks daily, end of treatment).
`Cc1ccc(N2CC3CN(C)CC3C2)cc1C(=O)N[C@H](C)c1cc(-c2cnn(C)c2)nc2ccccc12` (some centres unmarked) gave a viability of 86.8% (African green monkey cells; 7.812 µM).
`CCCC[C@H]1C(=O)N(C)[C@@H](CCCC)C(=O)N[C@@H](CCCNC(=O)CN2CCN(CC(=O)O)CCN(CC(=O)O)CCN(CC(=O)O)CC2)C(=O)N[C@H](C(=O)NCC(N)=O)CSCC(=O)N[C@@H](Cc2ccc(O)cc2)C(=O)N(C)[C@@H](C)C(=O)N[C@@H](CC(N)=O)C(=O)N2CCC[C@H]2C(=O)N[C@@H](Cc2c[nH]cn2)C(=O)N[C@@H](CC(C)C)C(=O)N(C)CC(=O)N[C@@H](Cc2c[nH]c3ccccc23)C(=O)N[C@@H](CO)C(=O)N[C@@H](Cc2c[nH]c3ccccc23)C(=O)N1C` [gallium-68 labelled] has a tissue-to-tissue ratio of 0.77 ± 0.03 (NOD/SCID mice, CHO-hPD-L1 xenograft, tumour over blood; iv, dose not given, 30 min; reference: tumour over blood).
For `CC[C@H](C)[C@H](NC(=O)[C@H](CCCCN)NC(=O)CNC(=O)[C@H](CC(C)C)NC(=O)[C@H](Cc1ccccc1)NC(=O)[C@H](CCCCN)NC(=O)[C@H](CO)NC(=O)[C@H](Cc1ccccc1)NC(=O)[C@H](Cc1c[nH]c2ccccc12)NC(=O)[C@H](CCC(N)=O)NC(=O)[C@@H](NC(=O)[C@H](Cc1ccccc1)NC(=O)CCCCCNC(=O)CN1CCN(CC(=O)O)CCN(CC(=O)O)CCN(CC(=O)O)CC1)C(C)C)C(=O)N[C@@H](CCC(=O)O)C(=O)N1CCC[C@H]1C(=O)N[C@@H](CC(=O)O)C(=O)N[C@H](C(=O)N[C@@H](CO)C(=O)N[C@@H](CCC(N)=O)C(=O)N[C@H](C(=O)N[C@@H](CCC(N)=O)C(=O)N[C@@H](CC(=O)O)C(=O)N1CCC[C@H]1C(=O)N[C@@H](CC(N)=O)C(=O)N[C@@H](CC(=O)O)C(=O)N[C@@H](CCC(N)=O)C(=O)N[C@@H](Cc1ccc(O)cc1)C(=O)N[C@@H](CCC(=O)O)C(=O)N1CCC[C@H]1C(=O)N[C@@H](Cc1ccccc1)C(=O)O)C(C)C)C(C)C` [copper-64 labelled], the SUVmean was 4.91 SUV (dynamic PET; mouse, CT26 tumour, checkpoint inhibitor-treated, tumour; intravenous, 100 µCi/mouse, 2580 s).
Under “time to fall”, `CCN(Cc1ccccc1)C(=O)CCc1nc(CN2CCN(C(=O)Cc3ccc(OC)c(OC)c3)CC2)no1` is recorded as 1.7 ± 0.22 min (rotarod test; mouse, CCI neuropathic pain model; 20 mg/kg).
`Cc1ccc(CNC(=O)c2ccn3c(-c4ccc(C#N)cc4)cnc3c2)cn1` gave a half-life of 1.58 h (metabolic stability; rat, liver microsomes).
With `C[C@H](O)[C@@H](NC(=O)[C@H]1CCCN1C(=O)[C@@H](CCCCN)NC(=O)[C@@H](CO)NC(=O)[C@@H](Cc1ccc(O)cc1)NC(=O)[C@@H](CC(N)=O)NC(=O)CCOCCOCCOCCNC(=O)CN1CCN(CC(=O)O)CCN(CC(=O)O)CCN(CC(=O)O)CC1)C(=O)N[C@H](CC(=O)O)C(=O)N[C@H](CCCNC(=N)N)C(=O)N[C@H](CCC(N)=O)C(=O)N[C@H](Cc1ccc(O)cc1)C(=O)N[C@H](Cc1c[nH]cn1)C(=O)N[C@H](Cc1ccccc1)C(N)=O` [copper-64 labelled] the tissue uptake was 1.44 ± 0.06 %ID/g (C57BL/6J mice, liver; intravenous, 1.85 MBq, 0.6667 h, radiolabelled).
`N#[11C]c1ccc(-c2csc(NN=C3CCCC3)n2)cc1` gave a radioactivity uptake of 1.15 ± 0.03 %ID/g (C57BL/6 mice, male, muscle; intravenous, 3 MBq, 15 min).
`CCn1ccc(-c2cc([C@@H](C)NC(=O)c3cc(OC[C@@H]4CCN4C)ccc3C)c3ccccc3n2)n1` has a viability of 74.6% (African green monkey cells; 31.25 µM).
For `CSCC[C@H](N)C(=O)N[C@@H](C)C(=O)N[C@@H](CCCNC(=N)N)C(=O)N[C@@H](CCCNC(=N)N)C(=O)N[C@@H](CC(=O)O)C(=O)N[C@@H](CCCCN)C(=O)N[C@H](C(=O)N[C@@H](CC(=O)O)C(=O)N[C@@H](Cc1ccccc1)C(=O)N[C@@H](C)C(=O)N[C@@H](CCCNC(=N)N)C(=O)N[C@@H](CCCNC(=N)N)C(=O)N[C@@H](CCCNC(=N)N)C(=O)N[C@@H](CCCNC(=N)N)C(=O)NCCCCCC(=O)NCCCCC(NC(=O)CCCCCNC(=O)[C@H](CCCNC(=N)N)NC(=O)[C@H](CCCNC(=N)N)NC(=O)[C@H](CCCNC(=N)N)NC(=O)[C@H](CCCNC(=N)N)NC(=O)[C@H](C)NC(=O)[C@H](Cc1ccccc1)NC(=O)[C@H](CC(=O)O)NC(=O)[C@@H](NC(=O)[C@H](CCCCN)NC(=O)[C@H](CC(=O)O)NC(=O)[C@H](CCCNC(=N)N)NC(=O)[C@H](CCCNC(=N)N)NC(=O)[C@H](C)NC(=O)[C@@H](N)CCSC)[C@@H](C)O)C(=O)NCCCCC(NC(=O)C(CCCCNC(=O)CCCCCNC(=O)[C@H](CCCNC(=N)N)NC(=O)[C@H](CCCNC(=N)N)NC(=O)[C@H](CCCNC(=N)N)NC(=O)[C@H](CCCNC(=N)N)NC(=O)[C@H](C)NC(=O)[C@H](Cc1ccccc1)NC(=O)[C@H](CC(=O)O)NC(=O)[C@@H](NC(=O)[C@H](CCCCN)NC(=O)[C@H](CC(=O)O)NC(=O)[C@H](CCCNC(=N)N)NC(=O)[C@H](CCCNC(=N)N)NC(=O)[C@H](C)NC(=O)[C@@H](N)CCSC)[C@@H](C)O)NC(=O)CCCCCNC(=O)[C@H](CCCNC(=N)N)NC(=O)[C@H](CCCNC(=N)N)NC(=O)[C@H](CCCNC(=N)N)NC(=O)[C@H](CCCNC(=N)N)NC(=O)[C@H](C)NC(=O)[C@H](Cc1ccccc1)NC(=O)[C@H](CC(=O)O)NC(=O)[C@@H](NC(=O)[C@H](CCCCN)NC(=O)[C@H](CC(=O)O)NC(=O)[C@H](CCCNC(=N)N)NC(=O)[C@H](CCCNC(=N)N)NC(=O)[C@H](C)NC(=O)[C@@H](N)CCSC)[C@@H](C)O)C(N)=O)[C@@H](C)O` (some centres unmarked), “mean tissue distribution” read 8.18% (C57BL/6 mouse female, liver; dose not given, 3 h; reference: total).
Under “mean platelet volume”, `COc1ccc(CNc2ccc3c(c2)S(=O)(=O)C=C3)cc1` is recorded as 5.27 fL (male C57BL/6 mice, blood; intraperitoneal, 5 mg/kg, day 8, group average).

Excerpt of the above:
`Cc1ccc(CNC(=O)c2ccn3c(-c4ccc(C#N)cc4)cnc3c2)cn1` gave a half-life of 1.58 h (metabolic stability; rat, liver microsomes).
The gamma-glutamyltransferase activity of `O=C1NC2(CC2)COc2ncc(F)cc2[C@H]2COCCN2c2ccn3ncc1c3n2` is reported as 0.5 ± 0.3 U/L (Sprague-Dawley rat, female, serum; oral, 20 mg/kg/day, 4 weeks daily, end of treatment).
